Experimental data from different studies.
A part holds a random share of what one study measured. Positions count from the first letter of the parent shown.

Study 1 — target: CCNB3, cyclin fold, Cln2 fusion (human); method: yeast growth competition, sequencing; medium: yeast; notes: weak parent motif; baseline: not given; direction: higher = stronger binding
Parent: PKN2 docking peptide (human); VSAVQKLDFSDTM; partner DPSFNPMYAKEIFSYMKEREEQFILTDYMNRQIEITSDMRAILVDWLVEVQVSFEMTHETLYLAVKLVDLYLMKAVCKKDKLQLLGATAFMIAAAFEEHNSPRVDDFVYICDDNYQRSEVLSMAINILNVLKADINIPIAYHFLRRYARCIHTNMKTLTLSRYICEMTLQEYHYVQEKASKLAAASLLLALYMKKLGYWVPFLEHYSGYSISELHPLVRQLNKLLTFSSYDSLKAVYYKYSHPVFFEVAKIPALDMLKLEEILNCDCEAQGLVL
Substitution	normalised enrichment score
VSAVQKHDFSDTM [L7H]	0.173
VSKVQKLDFSDTM [A3K]	-0.0833
VSAVQKLDTSDTM [F9T]	-0.232
VSAVQKLDFSDTE [M13E]	0.101
ESAVQKLDFSDTM [V1E]	0.174
VSAVQKLDFSKTM [D11K]	-0.0551
VSAVQKLDFYDTM [S10Y]	0.397
VKAVQKLDFSDTM [S2K]	-0.164
VSAVQKLDFSPTM [D11P]	0.0853
VNAVQKLDFSDTM [S2N]	-0.0644
VSAYQKLDFSDTM [V4Y]	0.172
SSAVQKLDFSDTM [V1S]	0.504
VSAVQKLDFSYTM [D11Y]	0.109
VSAVQKLDYSDTM [F9Y]	0.45
VSAVQKLDLSDTM [F9L]	0.111
VSAVQKLDFCDTM [S10C]	0.112
VSAVQKLAFSDTM [D8A]	0.456

Study 2 — method: universal PBM; molecule type: double-stranded DNA, one strand shown; medium: in vitro; tested at: not given; direction: higher = stronger binding
Target: Sal-like protein 4, full length isoform B (SALL4, Homo sapiens, UniProt Q9UJQ4-2, residues 1-616)
Notes: 8-mer, flanks averaged, mean of replicates
Residues (chain): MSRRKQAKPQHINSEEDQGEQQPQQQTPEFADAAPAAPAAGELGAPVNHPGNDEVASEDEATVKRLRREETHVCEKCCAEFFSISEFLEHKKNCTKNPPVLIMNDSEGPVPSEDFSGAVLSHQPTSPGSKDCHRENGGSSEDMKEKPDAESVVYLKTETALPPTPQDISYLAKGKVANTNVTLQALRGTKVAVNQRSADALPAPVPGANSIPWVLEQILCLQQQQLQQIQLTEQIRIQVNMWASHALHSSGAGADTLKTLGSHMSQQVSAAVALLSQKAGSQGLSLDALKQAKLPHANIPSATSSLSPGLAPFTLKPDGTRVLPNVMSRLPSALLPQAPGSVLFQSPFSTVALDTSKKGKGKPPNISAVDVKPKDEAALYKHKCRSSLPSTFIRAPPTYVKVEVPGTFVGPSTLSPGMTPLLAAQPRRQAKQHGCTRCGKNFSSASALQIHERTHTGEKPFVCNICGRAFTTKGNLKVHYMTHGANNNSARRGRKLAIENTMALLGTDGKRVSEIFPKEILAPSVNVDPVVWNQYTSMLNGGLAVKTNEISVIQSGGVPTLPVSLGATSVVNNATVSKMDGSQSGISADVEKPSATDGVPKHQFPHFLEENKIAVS
Sequence	E-score
CAGTGCCC	-0.292
GCACGGAA	-0.181
TACAGACA	0.224
AGGACGTC	-0.0873
GAAATGAC	0.157
AATTCTGG	0.0812
AGCTGTGC	-0.2
CTCTTGCC	-0.0679
CCGGATCC	-0.176
CTCACAAG	0.0115

Study 3 — method: aptamer microarray, sandwich; molecule type: DNA with 2'F-ANA; medium: in vitro; tested at: 200 nM; together with: Cy3 exosite-II aptamer, 400 nM; direction: higher = stronger binding; sequence: GGTTGGTGTGGTTGG
Target: Prothrombin, mature alpha-thrombin (F2, Homo sapiens, UniProt P00734)
Notes: whole 15-mer aptamer, many near background
Modification	mean fluorescence intensity
2'F-ANA at 2 5 7 9 11 12	142 a.u.
2'F-ANA at 1 2 4 6 8 11 14	102 a.u.
2'F-ANA at 1 2 4 5 7 8 11 12 14	79.6 a.u.
2'F-ANA at 1 2 3 5 6 9 14 15	50.8 a.u.
2'F-ANA at 8 9 10 12 13	185 a.u.
2'F-ANA at 1 2 5 7 10 12 13 14	46.1 a.u.
2'F-ANA at 1 3 4 5 7 10 11 13 14	44.8 a.u.
2'F-ANA at 2 3 4 5 6 9 14 15	47.5 a.u.
2'F-ANA at 2 3 6 7 10 11 13 14	238 a.u.
2'F-ANA at 1 2 8 10 15	54.6 a.u.
2'F-ANA at 5 7 9 10 14 15	44.5 a.u.
2'F-ANA at 1 2 4 6 7 9 10 14 15	50.3 a.u.
2'F-ANA at 1 2 4 5 7 10 12 13 15	49.7 a.u.
2'F-ANA at 1 3 11 12 13 15	430 a.u.
2'F-ANA at 2 4 5 7 8 9 10 12 13 15	47.4 a.u.
2'F-ANA at 1 2 3 5 6 8 10 11 12 13 14 15	88.1 a.u.
2'F-ANA at 1 4 5 6 8 9 11 13 14	50.3 a.u.

Other studies, line by line
Molecule	target	test	test system	setting	how to read	endpoint	result
PhoQ, residues 284 288 289 292 302 303 TNSAEL	PhoP, residues 12 14 15 18 19 NQFFI (Escherichia coli, UniProt P23836)	Sort-seq, refers to: YFP reporter	E. coli	PhoQ-PhoP variant library, together with: 10 µM Mg2+	baseline: high Mg2+ state, higher = stronger signaling	fold induction	1.19

A few entries again (study 2):
Sequence	E-score
AGCTGTGC	-0.2
GAAATGAC	0.157
CTCTTGCC	-0.0679
GCACGGAA	-0.181
